Experimental data gathered from unrelated publications.
Each line is one published result; not all experiments were run side by side.

Under “adverse event incidence”, `CNC(=O)c1ccc(-c2cnc3ncc(Cc4ccc5ncccc5c4)n3n2)cc1F` is recorded as 5% (phase 1 clinical trial, measured: blood alkaline phosphatase increased; dose escalation cohort; oral, dose not given, grade 3 or 4).
Under “adverse drug reaction incidence”, `Cc1c(Cl)c(C)[n+]([O-])c(Cl)c1-c1noc(-c2cc(O)c(O)c([N+](=O)[O-])c2)n1` is recorded as 0% (measured: Presyncope; healthy Chinese subjects; oral, 50 mg, 20 days).
`Cc1ccc(Sc2ccccc2N2CCNCC2)c(C)c1` — result for “adverse event incidence”: 5.3% (TEAE dysphoria; healthy adult men; oral, 10 mg single dose, 8 nights, fasted).
`O=C1CCc2ccc(OCCCCN3CCN(c4cccc(Cl)c4Cl)CC3)cc2N1` — result for “adverse event incidence”: 11% (measured: Constipation; genotyped patients, CYP2D6 poor metabolizers; dose not given, long-acting oral or depot).
For `NCCONC(=O)[C@@H]1CC[C@@H]2CN1C(=O)N2OS(=O)(=O)O`, “adverse event incidence” read 12.5% (measured: increased bile acids; healthy Chinese men; intravenous, 1 g, treatment-emergent).
`Cc1c(C(=O)O)ccc2c3n(nc12)[C@@H]1[C@H](C3)N(CC2CC2)[C@@]2(C(=O)Nc3cc(Cl)ccc32)[C@H]1c1cccc(Cl)c1F`: “adverse event incidence” 18.5% (phase Ia trial, measured: Anemia; cancer patients; oral, dose not given, all patients grade ≥3).
`CC(=O)O[C@H]1C(=O)[C@@]2(C)[C@H]([C@H](OC(=O)c3ccccc3)[C@]3(O)C[C@H](OC(=O)[C@H](O)[C@@H](NC(=O)c4ccccc4)c4ccccc4)C(C)=C1C3(C)C)[C@]1(OC(C)=O)CO[C@@H]1C[C@@H]2O`: “adverse event incidence” 17% (measured: alanine aminotransferase increased; patients with advanced solid tumours; intravenous, dose not given, grade 1 and 2, possibly related to drug).
`Cc1cc(Nc2ccc(S(F)(F)(F)(F)F)cc2)n2nc(C(C)(F)F)nc2n1` — result for “adverse event Pyrexia”: 80% (Plasmodium vivax malaria patients; oral, 400 mg).
